Measurements pooled from the literature.
Lines come from different studies, so protocols differ. Several values in a cell are separate wells, animals, samples, runs or records. ± marks the error that the study gave.
GBA2: Beta-glucosidase (GBA2, Homo sapiens, UniProt Q9HCG7)
Sequence of UniProt Q9HCG7 (whole entry, looked up): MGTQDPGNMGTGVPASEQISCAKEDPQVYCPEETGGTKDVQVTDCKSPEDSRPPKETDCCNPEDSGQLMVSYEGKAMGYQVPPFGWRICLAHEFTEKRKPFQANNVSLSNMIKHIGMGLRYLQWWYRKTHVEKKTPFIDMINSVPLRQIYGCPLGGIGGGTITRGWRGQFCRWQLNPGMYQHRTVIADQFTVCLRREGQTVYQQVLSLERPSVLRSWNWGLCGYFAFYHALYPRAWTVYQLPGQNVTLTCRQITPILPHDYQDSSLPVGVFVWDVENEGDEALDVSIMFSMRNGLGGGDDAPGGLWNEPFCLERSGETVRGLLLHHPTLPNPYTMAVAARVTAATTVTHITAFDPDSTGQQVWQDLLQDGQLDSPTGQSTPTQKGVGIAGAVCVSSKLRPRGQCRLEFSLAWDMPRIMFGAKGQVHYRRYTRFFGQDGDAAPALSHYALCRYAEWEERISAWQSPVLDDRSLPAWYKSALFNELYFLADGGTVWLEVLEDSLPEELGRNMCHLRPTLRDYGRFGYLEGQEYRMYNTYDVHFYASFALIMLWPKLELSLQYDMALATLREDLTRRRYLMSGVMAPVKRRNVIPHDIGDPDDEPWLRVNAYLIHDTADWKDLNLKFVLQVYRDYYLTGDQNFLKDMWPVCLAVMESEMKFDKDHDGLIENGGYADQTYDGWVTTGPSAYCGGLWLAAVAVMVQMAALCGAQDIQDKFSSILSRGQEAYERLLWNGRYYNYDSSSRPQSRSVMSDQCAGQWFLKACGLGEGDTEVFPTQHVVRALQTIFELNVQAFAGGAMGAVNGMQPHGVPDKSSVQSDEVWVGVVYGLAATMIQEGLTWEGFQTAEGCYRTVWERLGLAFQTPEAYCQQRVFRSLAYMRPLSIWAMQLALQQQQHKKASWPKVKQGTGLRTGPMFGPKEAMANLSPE
B4GALT1: Beta-1,4-galactosyltransferase 1 (B4GALT1, Homo sapiens, UniProt P15291)
Sequence of UniProt P15291 (whole entry, looked up): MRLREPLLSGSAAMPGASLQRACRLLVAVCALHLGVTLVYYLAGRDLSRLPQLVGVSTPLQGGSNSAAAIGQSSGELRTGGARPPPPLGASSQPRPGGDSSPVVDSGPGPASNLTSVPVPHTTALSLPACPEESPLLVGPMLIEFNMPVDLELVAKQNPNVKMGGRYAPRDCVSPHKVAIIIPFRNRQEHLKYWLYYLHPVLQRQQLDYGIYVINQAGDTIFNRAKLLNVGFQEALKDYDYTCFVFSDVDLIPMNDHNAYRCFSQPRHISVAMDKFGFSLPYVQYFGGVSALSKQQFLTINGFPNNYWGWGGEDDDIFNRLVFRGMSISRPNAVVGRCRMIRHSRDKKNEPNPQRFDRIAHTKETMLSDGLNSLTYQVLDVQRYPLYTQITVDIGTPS
CASP3: Caspase-3 (CASP3, Homo sapiens, UniProt P42574)
Sequence of UniProt P42574 (whole entry, looked up): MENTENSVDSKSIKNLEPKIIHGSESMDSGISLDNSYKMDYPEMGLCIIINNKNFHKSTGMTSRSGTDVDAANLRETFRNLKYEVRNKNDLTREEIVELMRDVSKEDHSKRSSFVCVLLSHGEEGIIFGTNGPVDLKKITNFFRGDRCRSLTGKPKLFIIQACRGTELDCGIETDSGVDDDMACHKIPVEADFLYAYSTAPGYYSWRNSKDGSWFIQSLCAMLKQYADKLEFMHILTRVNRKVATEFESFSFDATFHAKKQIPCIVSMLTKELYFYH
T1: preQ1-I riboswitch RNA; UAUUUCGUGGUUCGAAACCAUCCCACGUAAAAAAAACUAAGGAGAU
Sequence of UniProt P46089 (whole entry, unmodified, looked up): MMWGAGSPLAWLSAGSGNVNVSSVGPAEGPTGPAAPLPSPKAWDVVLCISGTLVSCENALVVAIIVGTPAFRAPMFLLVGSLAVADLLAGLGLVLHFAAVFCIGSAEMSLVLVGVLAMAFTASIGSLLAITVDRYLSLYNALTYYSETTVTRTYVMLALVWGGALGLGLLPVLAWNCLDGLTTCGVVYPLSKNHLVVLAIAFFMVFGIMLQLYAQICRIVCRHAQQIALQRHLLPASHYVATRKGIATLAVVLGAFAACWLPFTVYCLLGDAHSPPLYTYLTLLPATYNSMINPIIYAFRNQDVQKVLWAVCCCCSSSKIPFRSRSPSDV
Sequence of UniProt P31947 (whole entry, looked up): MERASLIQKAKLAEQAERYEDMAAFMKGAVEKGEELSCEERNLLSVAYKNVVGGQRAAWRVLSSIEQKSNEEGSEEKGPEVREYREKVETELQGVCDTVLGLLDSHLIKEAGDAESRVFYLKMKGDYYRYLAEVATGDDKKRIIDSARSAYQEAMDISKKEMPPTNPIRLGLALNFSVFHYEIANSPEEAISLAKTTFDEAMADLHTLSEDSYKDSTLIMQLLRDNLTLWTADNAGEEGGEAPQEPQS
Sequence of UniProt Q06180 (whole entry, looked up): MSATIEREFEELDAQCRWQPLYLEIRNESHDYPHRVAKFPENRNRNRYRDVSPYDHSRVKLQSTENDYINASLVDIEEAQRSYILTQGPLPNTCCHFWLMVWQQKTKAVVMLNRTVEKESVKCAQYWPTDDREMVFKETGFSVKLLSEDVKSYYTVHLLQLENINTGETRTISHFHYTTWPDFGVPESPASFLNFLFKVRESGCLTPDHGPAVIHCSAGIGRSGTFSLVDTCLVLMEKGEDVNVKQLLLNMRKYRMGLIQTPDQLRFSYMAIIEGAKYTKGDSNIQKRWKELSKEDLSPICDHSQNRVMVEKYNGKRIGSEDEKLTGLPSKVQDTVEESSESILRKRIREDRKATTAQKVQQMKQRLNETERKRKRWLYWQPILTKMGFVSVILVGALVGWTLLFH
Sequence of UniProt Q9BY41 (whole entry, looked up): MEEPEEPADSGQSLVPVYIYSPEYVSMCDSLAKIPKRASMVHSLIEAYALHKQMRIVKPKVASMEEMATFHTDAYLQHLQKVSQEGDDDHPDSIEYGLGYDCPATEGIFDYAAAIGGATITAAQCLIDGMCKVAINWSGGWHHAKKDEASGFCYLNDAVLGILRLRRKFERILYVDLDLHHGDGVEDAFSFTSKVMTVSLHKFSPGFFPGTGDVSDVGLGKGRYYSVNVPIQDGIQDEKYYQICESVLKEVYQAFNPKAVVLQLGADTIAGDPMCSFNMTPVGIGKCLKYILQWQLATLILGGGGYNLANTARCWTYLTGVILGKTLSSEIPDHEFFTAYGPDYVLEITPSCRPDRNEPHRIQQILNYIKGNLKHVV
Sequence of UniProt P35368 (whole entry, looked up): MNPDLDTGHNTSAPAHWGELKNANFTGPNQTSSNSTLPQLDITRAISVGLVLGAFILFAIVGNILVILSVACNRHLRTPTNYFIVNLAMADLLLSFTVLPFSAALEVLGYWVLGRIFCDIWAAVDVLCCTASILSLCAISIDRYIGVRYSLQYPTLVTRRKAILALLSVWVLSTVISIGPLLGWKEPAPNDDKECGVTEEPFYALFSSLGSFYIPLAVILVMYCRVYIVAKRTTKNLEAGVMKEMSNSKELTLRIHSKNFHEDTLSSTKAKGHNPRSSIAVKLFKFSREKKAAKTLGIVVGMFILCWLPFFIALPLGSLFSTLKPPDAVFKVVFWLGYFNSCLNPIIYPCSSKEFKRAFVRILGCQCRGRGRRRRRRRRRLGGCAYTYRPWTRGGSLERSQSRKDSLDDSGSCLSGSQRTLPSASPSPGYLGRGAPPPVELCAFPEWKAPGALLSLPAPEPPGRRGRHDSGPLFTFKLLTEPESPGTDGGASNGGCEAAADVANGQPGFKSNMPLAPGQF
Sequence of UniProt P31641 (whole entry, unmodified, looked up): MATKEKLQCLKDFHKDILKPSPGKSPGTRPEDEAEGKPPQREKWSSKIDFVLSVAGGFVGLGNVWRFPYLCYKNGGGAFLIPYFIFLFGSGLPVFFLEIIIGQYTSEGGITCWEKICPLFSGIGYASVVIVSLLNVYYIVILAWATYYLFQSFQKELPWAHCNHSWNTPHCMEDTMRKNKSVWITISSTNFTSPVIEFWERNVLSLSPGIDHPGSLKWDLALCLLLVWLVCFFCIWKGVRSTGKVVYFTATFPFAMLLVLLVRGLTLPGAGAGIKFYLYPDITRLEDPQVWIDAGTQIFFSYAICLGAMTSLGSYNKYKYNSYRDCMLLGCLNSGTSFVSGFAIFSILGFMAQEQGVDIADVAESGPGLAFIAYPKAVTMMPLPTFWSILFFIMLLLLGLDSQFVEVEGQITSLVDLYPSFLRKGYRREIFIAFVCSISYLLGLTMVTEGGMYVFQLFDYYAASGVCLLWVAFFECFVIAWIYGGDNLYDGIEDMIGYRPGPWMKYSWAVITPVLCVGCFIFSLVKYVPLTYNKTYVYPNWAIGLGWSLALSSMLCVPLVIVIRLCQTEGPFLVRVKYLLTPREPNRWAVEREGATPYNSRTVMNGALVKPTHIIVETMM
Sequence of UniProt O14744 (whole entry, looked up): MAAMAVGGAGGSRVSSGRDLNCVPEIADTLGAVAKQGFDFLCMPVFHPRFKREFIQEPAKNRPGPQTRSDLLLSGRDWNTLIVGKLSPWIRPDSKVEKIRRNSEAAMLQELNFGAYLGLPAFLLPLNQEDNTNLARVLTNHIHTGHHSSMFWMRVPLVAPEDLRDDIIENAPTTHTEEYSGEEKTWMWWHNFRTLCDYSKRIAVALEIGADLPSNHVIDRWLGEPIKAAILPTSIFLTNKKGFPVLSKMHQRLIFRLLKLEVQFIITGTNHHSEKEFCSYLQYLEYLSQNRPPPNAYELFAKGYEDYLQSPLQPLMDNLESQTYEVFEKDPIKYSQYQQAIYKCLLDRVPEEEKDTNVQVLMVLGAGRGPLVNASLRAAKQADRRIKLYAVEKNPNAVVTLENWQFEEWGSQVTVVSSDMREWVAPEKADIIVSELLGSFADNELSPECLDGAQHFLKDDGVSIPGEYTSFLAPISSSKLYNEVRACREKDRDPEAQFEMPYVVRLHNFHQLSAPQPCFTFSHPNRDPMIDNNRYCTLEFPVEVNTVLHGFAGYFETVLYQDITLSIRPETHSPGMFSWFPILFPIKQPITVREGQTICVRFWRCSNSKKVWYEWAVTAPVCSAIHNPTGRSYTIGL

Structure (SMILES)	target	test	test system	setting	how to read	endpoint	value
CC(C)=CCC/C(C)=C/CC/C(C)=C/COCCCCCN1C[C@H](O)[C@@H](O)[C@H](O)[C@H]1CO	GBA2	inhibitor, 4MU-β-D-glucopyranoside	HEK293T homogenates overexpressing GBA2		baseline: GBA1 IC50 over GBA2 IC50	selectivity ratio	375
CC(C)Oc1cc(Cl)ccc1CNc1cc(-c2ccccc2)nc2ncnn12	G-protein coupled receptor 3 (GPR3, Homo sapiens, UniProt P46089, M156A)	cAMP level, cAMP GloSensor		10 µM	higher = more cAMP	cAMP luminescence	4630 a.u. and 5620 a.u. and 5380 a.u. and 6490 a.u.
OC[C@@H]1[C@@H](O)[C@H](O)[C@@H](O)CN1CCCCCCC12CC3CC(CC(C3)C1)C2	GBA2	inhibitor, 4MU-β-D-glucopyranoside	HEK293T homogenates overexpressing GBA2		baseline: GBA1 IC50 over GBA2 IC50	selectivity ratio	6
Cn1c(=O)n(C2CCC(=O)NC2=O)c2ccc(C3CCN(CC(=O)Nc4cccc(CS(=O)(=O)N5CC[C@H](Nc6cccc(-c7sc(C(=O)O)c(OCC(=O)O)c7Cl)c6)CC5(C)C)c4)CC3)cc21 (stereo partly shown)	Tyrosine-protein phosphatase non-receptor type 2 (Ptpn2, Mus musculus, UniProt Q06180)	degrader, Western blot	B16-F10	0.1 µM		remaining protein	3.9% and 4.8%
Cc1cc2oc(=O)cc(Cn3ccnc3)c2cc1O	Alpha-1B adrenergic receptor (ADRA1B, Homo sapiens, UniProt P35368)	intracellular Ca2+ mobilization, agonist	COS-7	500 µM	baseline: 3 µM ionomycin	agonist activity	2.65 ± 1.09%
N=C(N)NCCS(=O)(=O)O	Sodium- and chloride-dependent taurine transporter (SLC6A6, Homo sapiens, UniProt P31641, Y138A)	binding, microscale thermophoresis		250 µM, room temperature, added: 50 nM labelled protein	higher = more binding	normalised MST signal	0.00599
CC(/C=C/C(=O)NO)=C\[C@@H](C)C(=O)c1ccc(N(C)C)cc1	Histone deacetylase 8 (HDAC8, Homo sapiens, UniProt Q9BY41)	ITC	phosphate buffer	concentration not given, pH 7.5		binding stoichiometry	0.8
OC[C@@H]1[C@@H](O)[C@H](O)[C@@H](O)CN1CCCCCOCc1ccc(-c2ccc(C(F)(F)F)cc2)cc1	GBA2	inhibitor, 4MU-β-D-glucopyranoside	HEK293T homogenates overexpressing GBA2		baseline: GBA1 IC50 over GBA2 IC50	selectivity ratio	400
CN1CCCN(CC(=O)NC2CCc3c[nH]nc3C2)CC1 (stereo not shown)	B4GALT1	enzyme activity, inhibitor, UDP-Glo		100 µM	lower means stronger inhibition	luminescence	58100 a.u.
OC[C@@H]1[C@@H](O)[C@H](O)[C@@H](O)CN1CCCCCOCc1ccc(-c2cc(C(F)(F)F)cc(C(F)(F)F)c2)cc1	GBA2	inhibitor, 4MU-β-D-glucopyranoside	HEK293T homogenates overexpressing GBA2		baseline: GCS IC50 over GBA2 IC50	selectivity ratio	1
Nc1nc(SCc2ccc(Cl)cc2)nn1S(=O)(=O)c1cccc(Cl)c1	Lysophospholipase-like protein 1 (LYPLAL1, Homo sapiens, UniProt Q5VWZ2)	enzyme activity, activator, gel-based ABPP	purified protein	concentration not given, added: FP-rhodamine	baseline: DMSO	probe labeling increase	2.5 fold
CC(=O)NC(Cc1ccccc1Cl)C(=O)N1CCCC12C=CC1CCC(C(=O)N3CCC4C=CC5C(C)CC(C(=O)O)N5C(=O)C43)N1C2=O (stereo not shown)	Vasodilator-stimulated phosphoprotein, EVH1 domain (VASP, Homo sapiens, UniProt P50552)	fluorescence titration		25 °C		binding free energy	-8.94 kcal/mol
N#Cc1cccc(-c2ccc(COCCCCCN3C[C@H](O)[C@@H](O)[C@H](O)[C@H]3CO)cc2)c1	GBA2	inhibitor, 4MU-β-D-glucopyranoside	HEK293T homogenates overexpressing GBA2		baseline: GBA1 IC50 over GBA2 IC50	selectivity ratio	350
NCc1c[nH]c2nc(N)[nH]c(=O)c12	T1, preQ1-I riboswitch RNA	in-line probing		35-45 h		Kd	450 nM
OC[C@H]1[C@@H](O)[C@H](O)[C@@H](O)CN1CCCCCOCc1ccc(-c2ccccc2)cc1C(F)(F)F	GBA2	inhibitor, 4MU-β-D-glucopyranoside	HEK293T homogenates overexpressing GBA2		baseline: GCS IC50 over GBA2 IC50	selectivity ratio	30
CN(C)S(=O)(=O)c1ccc(S(=O)(=O)N2CCC(n3c(=O)[nH]c4ccccc43)CC2)cc1	ATP-dependent helicase NAM7, helicase domain (NAM7, Saccharomyces cerevisiae, UniProt P30771)	inhibitor		concentration not given	baseline: untreated	ATPase activity	94.3%
CCCC[C@H](NC(=O)[C@H](CC(=O)O)NC(C)=O)C(=O)N1[C@H](C(=O)N[C@@H](CC(=O)O)C(=O)COC(=O)c2c(C)cccc2C)C[C@@H]2CCCC[C@@H]21	CASP3	enzyme activity, inhibitor				kinact/KI	1.67e+06 M⁻¹ s⁻¹
CN(Cc1cc(C2CC2)on1)C(=O)c1cccc(-c2ccc3c(c2)CCO3)c1	Acetyl-CoA synthetase (Cryptococcus neoformans, UniProt J9VFT1)	enzyme activity, inhibitor, coupled pyrophosphate		31.3 µM	higher is more activity	reaction rate	0.000284 a.u.
CC(=O)N[C@@H](Cc1ccccc1)C(=O)N[C@@H](CC(=O)O)C(=O)N[C@@H](CCC(=O)O)C(=O)N1CCC[C@H]1C(=O)N[C@@H](CC(=O)O)C(=O)COC(=O)c1c(C)cccc1C	CASP3	enzyme activity, inhibitor				kinact/KI	3.3e+06 M⁻¹ s⁻¹
CNC(=N)c1ccc(-c2ccc(-c3ccc(C(=N)NC)cc3)o2)cc1	Protein arginine N-methyltransferase 5 (PRMT5, Homo sapiens, UniProt O14744)	enzyme activity, inhibitor, radiometric		20 µM		remaining activity	53.7%
OC[C@@H]1[C@@H](O)[C@H](O)[C@@H](O)CN1CCCCCOCc1ccc(-c2cccc(F)c2)cc1	GBA2	inhibitor, 4MU-β-D-glucopyranoside	HEK293T homogenates overexpressing GBA2		baseline: GBA1 IC50 over GBA2 IC50	selectivity ratio	25
CC(=O)N[C@@H](CC(C)C)C(=O)N[C@@H](CCC(=O)O)C(=O)N[C@@H](Cc1c[nH]cn1)C(=O)N[C@@H](CC(=O)O)C(=O)COC(=O)c1c(C)cccc1C	CASP3	enzyme activity, inhibitor				kinact/KI	108000 M⁻¹ s⁻¹
O=C1c2sc(-c3ccc(N4CCC(CO)CC4)nc3F)nc2CCN1c1cccnc1	5-hydroxytryptamine receptor 3A (HTR3A, Homo sapiens, UniProt P46098)	ligand displacement, radioligand		1 µM		inhibition	-30%
COc1ccccc1-c1ccncc1C(=O)Nc1nnc(OCc2ccc(Cl)cc2)s1	DNA polymerase theta, helicase domain (POLQ, Homo sapiens, UniProt O75417)	ATPase activity, ADP-Glo		0.015 µM, added: ATP 100 µM		remaining activity	63%
N[C@H]1CC[C@H](Nc2nccc(-c3cccnc3Oc3ccc(NC(=O)NC4CC4)c4ccccc34)n2)CC1	14-3-3 protein sigma (SFN, Homo sapiens, UniProt P31947)	kinobead competition pulldown	HEK293/HCT116 lysate mixture	10 µM, 1 h, 4 °C	lower = stronger competition	log2 LFQ intensity	22.6 and 22.9 and 22.7
CN1Cc2ccccc2CC1C(=O)N1CCN(c2cc(=O)[nH]c(N)n2)CC1 (stereo not shown)	B4GALT1	enzyme activity, inhibitor, UDP-Glo		100 µM	lower means stronger inhibition	luminescence	54800 a.u.
N#CN1CC[C@H](C(=O)Nc2nc3c(s2)CN(C(=O)CN=[N+]=[N-])CC3)C1	G-protein coupled receptor 157 (GPR157, Homo sapiens, UniProt Q5UAW9)	affinity probe, click pull-down LC-MS/MS	HEK293T			total spectral count	9
CCCCCCCCCCCCCCCC(=O)NCCCC[C@H](NC(=O)[C@H](CCC(=O)O)NC(=O)[C@H](Cc1ccc(O)cc1)NC(=O)[C@H](CCC(=O)O)NC(=O)COCC(=O)NCCCOCCOCCOCCCNC(=O)[C@H](Cc1c[nH]c2ccccc12)NC(=O)[C@H](CCCCN)NC(=O)[C@H](C)NC(=O)[C@H](CCCCNC(=N)N)NC(=O)[C@H](CCC(N)=O)NC(=O)[C@H](Cc1c[nH]cn1)NC(=O)[C@H](CCSC)NC(=O)[C@H](CC(C)C)NC(=O)[C@H](CCC(N)=O)NC(=O)[C@@H](NC(=O)[C@H](CCC(=O)O)NC(=O)C(C)(C)NC(=O)[C@@H](NC(=O)C(C)(C)N)C(C)C)[C@@H](C)CC)C(=O)N[C@@H](CCC(=O)O)C(=O)N[C@@H](Cc1ccc(O)cc1)C(=O)N[C@@H](CCC(=O)O)C(N)=O	Parathyroid hormone/parathyroid hormone-related peptide receptor (PTH1R, Homo sapiens, UniProt Q03431)	agonist	Saos-2 with cAMP reporter	31.6 nM, 30 min, ligand-on phase	higher = more cAMP	cAMP luminescence AUC	88.3 a.u.
